Literature values, collected from citations in different studies.
Lines come from different studies, so protocols differ. Converted amounts (≈) assume the structure as drawn.
Organism: Escherichia coli

The MIC of `CNC(C)C1CCC(N)C(OC2C(N)CC(N)C(OC3OCC(C)(O)C(NC)C3O)C2O)O1` (stereo not drawn) is reported as 1 µg/mL (≈ 2.09 µM) (clinical isolate RKI-No_592/16).
`C[C@H]1c2cccc(O)c2C(=O)C2=C(O)[C@]3(O)C(=O)C(C(N)=O)=C(O)[C@@H](N(C)C)[C@@H]3[C@@H](O)[C@@H]21` gave an MIC of 32 µg/mL (≈ 72 µM).
`CC1(C)S[C@@H]2[C@H](NC(=O)[C@H](N)c3ccccc3)C(=O)N2[C@H]1C(=O)O` gave an MIC of greater than 16 µg/mL (clinical isolate RKI-No_95/15).
With `CCN1CCN(C(=O)N[C@@H](C(=O)N[C@@H]2C(=O)N3[C@@H]2SC(C)(C)[C@@H]3C(=O)O)c2ccccc2)C(=O)C1=O` the MIC was 1020 µg/mL (≈ 1980 µM) (ATCC BAA-2469).
`c1ccc2c(c1)CCNC2c1c[nH]c2ccccc12` (stereo not drawn): “relative fluorescence index” 0.52 (efflux pump inhibition; AG100A AcrAB-TolC deleted; 50 µM; reference: untreated cells).
For `CNC(C)C1CCC(N)C(OC2C(N)CC(N)C(OC3OCC(C)(O)C(NC)C3O)C2O)O1` (stereo not drawn), the MIC was 0.25 to 1 µg/mL (≈ 0.523 to 2.09 µM) (ATCC 25922).
`Oc1ccc(-c2nc(-c3ccc(OC4CCCC4)cc3)no2)cc1` has an MIC of greater than 128 µg/mL (ATCC 25922).
`C[C@@H](O)[C@H]1C(=O)N2C(C(=O)O)=C(S[C@@H]3CN[C@H](C(=O)N(C)C)C3)[C@H](C)[C@H]12` has an MIC of 32 µg/mL (≈ 83.4 µM) (ATCC BAA-2469).
`O=C(O)c1[nH]c2ccccc2c1C1NCCc2ccccc21` (stereo not drawn) — result for “relative fluorescence index”: -0.01 (efflux pump inhibition; AG100A AcrAB-TolC deleted; 50 µM; reference: untreated cells).

Some of these lines once more:
With `CCN1CCN(C(=O)N[C@@H](C(=O)N[C@@H]2C(=O)N3[C@@H]2SC(C)(C)[C@@H]3C(=O)O)c2ccccc2)C(=O)C1=O` the MIC was 1020 µg/mL (≈ 1980 µM) (ATCC BAA-2469).
